Published values from different studies.
“And” joins repeats or separate records; there may be more than shown. ± gives the spread as reported.

C=C(C)[C@@H]1CC[C@]2(NCCN3CCS(=O)(=O)CC3)CC[C@]3(C)[C@H](CC[C@@H]4[C@@]5(C)CC=C(C6=CC[C@@](CF)(C(=O)O)CC6)C(C)(C)[C@@H]5CC[C@]43C)[C@@H]12  AUC(0-tau) (LC-MS/MS; HIV-1-infected treatment-naive adults, plasma; oral, 140 mg once daily, day 7, monotherapy): 29300 ng·h/mL
C[C@H]1CN(C(=O)CC#N)[C@]12CCN(c1ncnc3[nH]ccc13)C2  AUC(0-tau) (atopic dermatitis patients, plasma; topical, 5 g of 3% ointment twice daily, day 1): 30.4 ± 10.8 ng·h/mL
C[C@@H](N)c1cc(Cl)ccc1Cn1c(=S)[nH]c(=O)c2[nH]ccc21  AUC(0-tau) (healthy Japanese volunteers, plasma; oral, 2.5 mg once daily, day 1, geometric mean): 0.1 µM·h
Nc1cc(F)ccc1NC(=O)c1ccc(CNC(=O)/C=C/c2cccnc2)cc1  AUC(0-tau) (Japanese patients, plasma; oral, 30 mg, cycle 1 day 1): 3740 ng·h/mL
Cc1ccc(NC(=O)c2ccc(CN3CCN(C)CC3)cc2)cc1Nc1nccc(-c2cncc(-c3oncc3C)c2)n1  AUC(0-tau) (healthy volunteers, plasma; oral, 12.5 mg once daily, day 1, 7-day dosing, mean): 6080 ng·h/mL
C#C[C@]1(O)CC[C@H]2[C@@H]3CCc4cc(O)ccc4[C@H]3CC[C@@]21C  AUC(0-tau) (HIV-positive women, serum; oral, 30 µg, 24 h after last dose, ritonavir arm, steady state, with: ritonavir): 2.25 ± 0.567 ng·h/mL
C[C@]12C=CC(=O)C=C1CC[C@@H]1[C@@H]2[C@@H](O)C[C@@]2(C)[C@H]1C[C@H]1O[C@@H](C3CCCCC3)O[C@]12C(=O)CO  AUC(0-tau) (children with asthma, serum; inhaled, 160 µg ciclesonide, day 7, HFA-MDI with spacer, tau 24 h): 0.663 ± 0.042 ng·h/mL
Cc1cc(Nc2ncc(Cl)c(Nc3ccccc3S(=O)(=O)C(C)C)n2)c(OC(C)C)cc1C1CCNCC1  AUC(0-tau) (measured: unbound drug; human, plasma; oral, 750 mg/day, after daily dose 9): 0.36 µM·h and 0.335 µM·h
